Assay results collected from several papers.
Each line is one published result; not all experiments were run side by side. Several values in a cell are separate wells, animals, samples, runs or records. Numbers after ± are the reported error.

`CCCOc1ccc([C@H]2CNC(=O)N2c2ccc3[nH]cnc3c2)cc1` has a concentration of 26.9 ng/mL (phase 1 pharmacokinetics; elderly humans, fasted, CSF; oral, 500 mg twice daily, tablet, 12 h after final dose, day 11).
The concentration of `Cc1cnc(N2CC3(CCOCC3)C2)c(C(=O)Nc2ccc(C(=O)N3CCc4cc(C(=O)Nc5c(C)cccc5F)sc4-c4ccccc43)cc2)c1` is reported as 11500 ng/mL (human, nasal epithelial lining fluid; inhaled, 5 mg twice daily, 24 h).
For `O=C(N[C@H](Cc1c[nH]c2ccccc12)C(=O)Nc1ccncc1)c1ccc(-c2cc(C(F)(F)F)ccc2F)cc1F`, the concentration was 3470 nM (Swiss Webster mouse, female, brain; oral, 50 mg/kg, 8 h, 20% Kolliphor vehicle).
For `CN(C(=O)n1cnc(-c2cccnc2)c1)C1CCCCC1`, the concentration was 5.8 ± 0.2 ng/g (Wistar rat, cerebellum; oral, 10 mg/kg/day of BIA 10-2474, 24 h, repeated 5 days).
`CCc1c(-c2ccccc2)c(-c2ccccc2)nn1-c1ccccc1-c1cccc(OCC(=O)O)c1` has a concentration of 317 ng/mL and 342 ng/mL (Sprague-Dawley rat, bone homogenate; oral, 10 mg/kg, 4 h).
For `CCCCc1ccc(C#Cc2ccc(OCC)cc2)cc1`, the concentration was 0.48 ng/mL (refers to: compound; human pregnant women, male fetuses, maternal serum; dose not given, paired maternal-cord samples, mean).
`COc1ccc2c(=O)n(C)c(-c3ccccc3)nc2c1` has a concentration of 30.9 ng/g (Sprague-Dawley rat, male, heart; oral, 30 mg/kg, 2 h).
`CC=CC1CCC(C2CCC(CCC)CC2)CC1` (centres unmarked) has a concentration of 0.83 ng/mL (refers to: compound; human pregnant women, male fetuses, maternal serum; dose not given, paired maternal-cord samples, mean).
For `O=C(N[C@H](Cc1c[nH]c2ccccc12)C(=O)Nc1ccncc1)c1ccc(-c2ccc(F)c(Cl)c2)cc1F`, the concentration was 700 nM (Swiss Webster mouse, female, brain; oral, 50 mg/kg, 2 h, 20% Kolliphor vehicle).
Under “log2 fold change”, `Cn1cc(-c2ccc(-c3cncc(Cl)c3N3CCC4(CCNC4=O)CC3)cc2)cn1` is recorded as -2.26 (COLO 205; gene expression, microarray, refers to: PDK4 mRNA; concentration not given, 2 h; baseline: untreated cells).
The concentration of `CCCC1CCC(c2ccc(OCC)c(F)c2F)CC1` (centres unmarked) is reported as 0.9 ng/mL (refers to: compound; human pregnant women, female fetuses, maternal serum; dose not given, paired maternal-cord samples, mean).

Excerpt of the above:
The concentration of `CCCC1CCC(c2ccc(OCC)c(F)c2F)CC1` (centres unmarked) is reported as 0.9 ng/mL (refers to: compound; human pregnant women, female fetuses, maternal serum; dose not given, paired maternal-cord samples, mean).
